Measured values pooled from the literature.
Protocols differ between the studies behind these lines. ± marks the error that the study gave.

SMILES	assay	test system	setting	how to read	Cmax
CCCNS(=O)(=O)Nc1ncnc(OCCOc2ncc(Br)cn2)c1-c1ccc(Br)cc1	–	healthy adult humans, both sexes, plasma	oral, 10/40 mg fixed-dose combination, single dose, fed, high-fat breakfast	–	241 ng/mL
Cc1ncc2n1-c1ccc(Cl)cc1C(c1ccccc1F)=NC2	–	human, plasma	oral, 7.5 mg, alone before amenamevir 200 mg	–	26.3 ± 13.7 ng/mL
CC(C)C[C@H](NC(=O)CNC(=O)c1cc(Cl)ccc1Cl)B(O)O	–	human, plasma	oral, 4 mg, day 1, alone	–	55.8 ng/mL
Cc1cnc(C(=O)N[C@H]2CCCCC/C=C\[C@@H]3C[C@@]3(C(=O)NS(=O)(=O)C3CC3)NC(=O)[C@@H]3C[C@@H](Oc4nc5ccccc5c5ccccc45)CN3C2=O)cn1	–	healthy human volunteers, plasma	oral, dose not given, rosuvastatin interaction study	relative to: given without rosuvastatin	296 ng/mL
CC[C@H](C)[C@H](NC(=O)[C@H](CC(C)C)NC(=O)[C@H](Cc1c[nH]c2ccccc12)NC(=O)[C@H](CCC(N)=O)NC(=O)[C@@H](NC(=O)[C@H](Cc1ccccc1)NC(=O)[C@H](C)NC(=O)[C@H](CCCCNC(=O)COCCOCCNC(=O)COCCOCCNC(=O)CC[C@H](NC(=O)CCCCCCCCCCCCCCCCCCC(=O)O)C(=O)O)NC(=O)[C@H](CCC(N)=O)NC(=O)[C@H](C)NC(=O)[C@@H](NC(=O)[C@H](CCCCN)NC(=O)[C@H](CC(=O)O)NC(=O)[C@H](CC(C)C)NC(=O)C(C)(C)NC(=O)[C@@H](NC(=O)[C@H](CO)NC(=O)[C@H](Cc1ccc(O)cc1)NC(=O)[C@H](CC(=O)O)NC(=O)[C@H](CO)NC(=O)[C@@H](NC(=O)[C@H](Cc1ccccc1)NC(=O)[C@@H](NC(=O)CNC(=O)[C@H](CCC(=O)O)NC(=O)C(C)(C)NC(=O)[C@@H](N)Cc1ccc(O)cc1)[C@@H](C)O)[C@@H](C)O)[C@@H](C)CC)[C@@H](C)CC)C(C)C)C(=O)N[C@@H](C)C(=O)NCC(=O)NCC(=O)N1CCC[C@H]1C(=O)N[C@@H](CO)C(=O)N[C@@H](CO)C(=O)NCC(=O)N[C@@H](C)C(=O)N1CCC[C@H]1C(=O)N1CCC[C@H]1C(=O)N1CCC[C@H]1C(=O)N[C@@H](CO)C(N)=O	–	human, severe hepatic impairment, plasma	subcutaneous, 5 mg single dose, geometric LSM, weight-adjusted	–	510 ng/mL
CC(C)c1nc(CN(C)C(=O)N[C@H](C(=O)N[C@@H](Cc2ccccc2)C[C@H](O)[C@H](Cc2ccccc2)NC(=O)OCc2cncs2)C(C)C)cs1	–	healthy human volunteers, plasma	oral, dose not given, alone, digoxin interaction study	–	2170 ng/mL
CC[C@@]1(O)C(=O)OCc2c1cc1n(c2=O)Cc2cc3c(CN(C)C)c(O)ccc3nc2-1	–	human patients, plasma	oral, 8 mg weekly, day 1, geometric mean, alone	–	24.8 ng/mL
O[C@H]1CCCN[C@@H]1CCCn1cnc2c(Cl)c(Cl)ccc21	–	healthy human volunteers, plasma	oral, 50 mg, day 1, multiple ascending dose	–	70 ng/mL
Oc1ccc2ccc3c4ccccc4cc4ccc1c2c43	UPLC-AMS	human, plasma	oral, 25 ng of [14C]-BaP	–	1.47 ± 0.74 fg BaP equivalents/mL
CN1CC(=O)N2[C@H](c3ccc4c(c3)OCO4)c3[nH]c4ccccc4c3C[C@@H]2C1=O	–	healthy adult humans, both sexes, plasma	oral, 10/40 mg fixed-dose combination, single dose, fasted, food-effect part	–	475 ng/mL
CCC(=O)C(CC(C)N(C)C)(c1ccccc1)c1ccccc1 (stereo not drawn)	–	human, plasma	oral, 40 mg, day 1, steady state, dose-normalized, alone	–	362 ng/mL
CC[C@H](C)[C@H](NC(=O)[C@H](CC(C)C)NC(=O)[C@H](Cc1c[nH]c2ccccc12)NC(=O)[C@H](CCC(N)=O)NC(=O)[C@@H](NC(=O)[C@H](Cc1ccccc1)NC(=O)[C@H](C)NC(=O)[C@H](CCCCNC(=O)COCCOCCNC(=O)COCCOCCNC(=O)CC[C@H](NC(=O)CCCCCCCCCCCCCCCCCCC(=O)O)C(=O)O)NC(=O)[C@H](CCC(N)=O)NC(=O)[C@H](C)NC(=O)[C@@H](NC(=O)[C@H](CCCCN)NC(=O)[C@H](CC(=O)O)NC(=O)[C@H](CC(C)C)NC(=O)C(C)(C)NC(=O)[C@@H](NC(=O)[C@H](CO)NC(=O)[C@H](Cc1ccc(O)cc1)NC(=O)[C@H](CC(=O)O)NC(=O)[C@H](CO)NC(=O)[C@@H](NC(=O)[C@H](Cc1ccccc1)NC(=O)[C@@H](NC(=O)CNC(=O)[C@H](CCC(=O)O)NC(=O)C(C)(C)NC(=O)[C@@H](N)Cc1ccc(O)cc1)[C@@H](C)O)[C@@H](C)O)[C@@H](C)CC)[C@@H](C)CC)C(C)C)C(=O)N[C@@H](C)C(=O)NCC(=O)NCC(=O)N1CCC[C@H]1C(=O)N[C@@H](CO)C(=O)N[C@@H](CO)C(=O)NCC(=O)N[C@@H](C)C(=O)N1CCC[C@H]1C(=O)N1CCC[C@H]1C(=O)N1CCC[C@H]1C(=O)N[C@@H](CO)C(N)=O	–	human, normal renal function, plasma	subcutaneous, 5 mg single dose, eGFR ≥ 90 (MDRD), geometric mean	–	339 ng/mL
COc1ccc(C(CN(C)C)C2(O)CCCCC2)cc1 (stereo not drawn)	–	human, plasma	oral, 225 mg/day, day 15	–	211 ng/mL
COC(=O)N[C@H](C(=O)N1CCC[C@H]1C(=O)Nc1ccc([C@@H]2CC[C@@H](c3ccc(NC(=O)[C@@H]4CCCN4C(=O)[C@@H](NC(=O)OC)C(C)C)cc3)N2c2ccc(C(C)(C)C)cc2)cc1)C(C)C	–	healthy human volunteers, plasma	oral, dose not given, added: digoxin plus 2D regimen	–	147 ng/mL
COc1ccsc1CNCC[C@@]1(c2ccccn2)CCOC2(CCCC2)C1	–	healthy human, normal hepatic function, plasma	intravenous, 1 mg single dose, arithmetic mean	–	54.1 ± 59.5 ng/mL
COc1ccc(C[C@@H]2NC(=O)[C@H]([C@@H](C)O)NC(=O)[C@@H]3[C@@H]4CCN3C(=O)[C@@H]3Cc5cn(c6ccc(F)cc56)CCCCCCN(Cc5ccc(cc5)CCNC(=O)[C@]5(C)CCCN5C2=O)C(=O)CCC(=O)N[C@@H](C)C(=O)N[C@H](CNC(=O)CCCCC[N+](C)(C)C)C(=O)N[C@@H](Cc2cccc(c2)CNC(=O)CO4)C(=O)N3)cc1	–	fasted healthy humans, plasma	oral, 300 mg single dose, with 1800 mg Labrasol, geometric mean	–	149 nM
Cc1ncc2n1-c1ccc(Cl)cc1C(c1ccccc1F)=NC2	–	healthy human, plasma	oral, 2 mg, added: efavirenz 50 mg, no ritlecitinib	–	8 ng/mL
CCCCCOc1ccc(-c2cc(-c3ccc(C(=O)N[C@H]4C[C@@H](O)[C@@H](O)NC(=O)[C@@H]5[C@@H](O)[C@@H](C)CN5C(=O)[C@H]([C@H](O)CC(N)=O)NC(=O)[C@H]([C@H](O)[C@@H](O)c5ccc(O)c(OS(=O)(=O)O)c5)NC(=O)[C@@H]5C[C@@H](O)CN5C(=O)[C@H]([C@@H](C)O)NC4=O)cc3)no2)cc1	–	human paediatric patients 6 to sample C years, plasma	intravenous, 3 mg/kg once daily, day 7, median	–	20800 ng/mL
Oc1ccc2cc3ccc4cccc5ccc(c2c1)c3c45	UPLC-AMS	human, plasma	oral, 100 ng of [14C]-BaP	–	8.13 ± 6.96 fg BaP equivalents/mL
CN[C@@H]1C[C@H]2O[C@@](C)([C@@H]1OC)n1c3ccccc3c3c4c(c5c6ccccc6n2c5c31)C(=O)N[C@@H]4O	–	human patients	intravenous infusion, 24 mg/m^2/24 h, 72 h infusion, cycle 1, mean, added: prednisone	–	11800 ng/mL
O=c1[nH]c(Cc2ccccn2)nc2c1cnn2C1CCOCC1	–	healthy male human, plasma	oral, 100 mg, geometric mean	–	3120 nM

A few entries again:
SMILES	assay	test system	setting	how to read	Cmax
COC(=O)N[C@H](C(=O)N1CCC[C@H]1C(=O)Nc1ccc([C@@H]2CC[C@@H](c3ccc(NC(=O)[C@@H]4CCCN4C(=O)[C@@H](NC(=O)OC)C(C)C)cc3)N2c2ccc(C(C)(C)C)cc2)cc1)C(C)C	–	healthy human volunteers, plasma	oral, dose not given, added: digoxin plus 2D regimen	–	147 ng/mL
COc1ccsc1CNCC[C@@]1(c2ccccn2)CCOC2(CCCC2)C1	–	healthy human, normal hepatic function, plasma	intravenous, 1 mg single dose, arithmetic mean	–	54.1 ± 59.5 ng/mL
